Measurements pooled from the literature.
Each numbered part is a random draw from the data of one study; scales do not carry over between parts.

Set 1
Target: Interferon regulatory factor 7, full length, phosphomimetic (IRF7, Homo sapiens, UniProt Q92985, residues 1-503, S471D/S472D/S475D/S476D/S477D/S483D/S484D/S487D)
Chain of UniProt Q92985 (whole entry, unmodified, looked up): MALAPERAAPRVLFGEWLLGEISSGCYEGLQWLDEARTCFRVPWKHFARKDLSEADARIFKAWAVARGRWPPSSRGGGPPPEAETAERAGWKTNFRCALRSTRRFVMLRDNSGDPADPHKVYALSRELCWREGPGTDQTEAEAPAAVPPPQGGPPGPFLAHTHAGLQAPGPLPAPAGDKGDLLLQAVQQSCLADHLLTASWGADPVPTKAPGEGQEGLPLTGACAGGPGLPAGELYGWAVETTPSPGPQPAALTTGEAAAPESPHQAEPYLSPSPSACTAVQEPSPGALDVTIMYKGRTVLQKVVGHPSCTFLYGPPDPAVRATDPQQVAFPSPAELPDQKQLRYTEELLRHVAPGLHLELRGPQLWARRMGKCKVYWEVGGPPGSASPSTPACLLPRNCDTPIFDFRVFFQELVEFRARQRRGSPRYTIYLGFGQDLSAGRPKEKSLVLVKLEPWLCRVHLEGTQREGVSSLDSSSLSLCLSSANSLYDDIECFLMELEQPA
Method: protein-binding microarray
Form: double-stranded DNA, one strand shown
Matrix: in vitro
Concentration: 2200 nM top
Setting: 60-bp whole probe
With: salmon DNA 0.4 mg/ml
Baseline: random background probes
Direction: higher = stronger binding
Constant ends, left off below: GCCTAGCAC … GTCTTGATTCGCTTGACGCTGCTG
Sequence | fitted relative affinity
GGCTGTTTGGTCCTGAACCTGTGCTAG | 0.106 z-score
AGTGTTTGCCCTATTTAAGAGTGCTAG | 0.906 z-score
GACGGACTGCTACTGCTGATGTGCTAG | -0.257 z-score
GTGCCCGCTGCTTCCGGTGCGTGCTAG | 0.416 z-score
TCACCTTTGCCTCATCTTACTGTGCTA | 2.15 z-score
TTAGGTTTCGTCTTTCGGTTAGTGCTA | 8.41 z-score
GACGGTTCCGGGTTCGGGACGTGCTAG | 1.79 z-score
CACGAACTGGGGTATCGAGACGTGCTA | -0.239 z-score
GACGGTTCCCTTTTCCTGAAGTGCTAG | 2.57 z-score
GACGGACTGGGTTTCGGGCCGTGCTAG | 0.214 z-score
GACGATTCCAGTTTCGCGACGTGCTAG | 2.7 z-score
TTAGGTTTCGACTATCGGTAAGTGCTA | 3.2 z-score
TCACATTTTTTTTTTCAACTGTGCTAG | 1.67 z-score
TTAGGAGTGGACTATCGGTTAGTGCTA | -0.298 z-score
GTAGGTTTCGACTTTCGGTTAGTGCTA | 10.5 z-score
TTTGCATTGCTTCTATAGGCGTGCTAG | 0.817 z-score
TTAGGTTTCCTGCTCCTTTAGTGCTAG | 1.57 z-score

Set 2
Target: Sal-like protein 4, full length isoform B (SALL4, Homo sapiens, UniProt Q9UJQ4-2, residues 1-616)
Method: universal PBM
Form: double-stranded DNA, one strand shown
Matrix: in vitro
Concentration: not given
Setting: 8-mer, flanks averaged, mean of replicates
Direction: higher = stronger binding
Sequence | E-score
GGTCTGCA | -0.206
CGTCCTAC | -0.188
GCTTGTCC | -0.171
CATTGGGC | -0.165
CGCGTACG | 0.0487
AAGTTCAG | 0.0688
CGACAAAA | 0.175
AAGTAATC | 0.116
CATGGCGA | -0.216
CCGTTCGC | -0.153
ACCCCACA | -0.0458
CTGAATGC | -0.105
AAGACTCG | -0.111
TCCTTCAA | 0.139
GGACCGCA | -0.243
AAATCTTA | 0.251
AGACGTAA | 0.0713
ACTCGAGC | -0.234
ACATCACC | -0.0442
AGCTACTG | -0.138
AAGCACAC | -0.0923
CTCCATTC | -0.134
AGACTTTC | 0.0335
TGATTGCA | 0.138
TATTTCGA | 0.301

Set 3
Target: Myc proto-oncogene protein, bHLH-zipper, MAX partner unstated (MYC, Homo sapiens, UniProt P01106, residues 368-449)
Chain of UniProt P01106 (368-449, looked up): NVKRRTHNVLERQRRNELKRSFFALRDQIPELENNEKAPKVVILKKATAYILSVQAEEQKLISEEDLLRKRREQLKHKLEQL
Method: protein-binding microarray
Form: double-stranded DNA, one strand shown
Matrix: in vitro
Concentration: not given
Setting: k-mer, scored over probes, only values ≥0.25
Direction: higher = stronger binding
Sequence | E-score
GACAACGC | 0.279
AGCGTGTC | 0.389
ACTACACG | 0.316
CATGTGAC | 0.462
CCCCGCCC | 0.318
CCCGCCCG | 0.264
CGCGGCAC | 0.284
AACGTGTA | 0.349
CGCCATGC | 0.435
CCACGGGG | 0.368
ACGCGTCT | 0.309
CATGAGGA | 0.387
CCTCCACG | 0.329
CGGGCACA | 0.305
CAAGCATG | 0.38
CATGGGGG | 0.357
CGCGAGGA | 0.302
CACCGTGG | 0.362
ACGTGAGC | 0.269
ACCACGAG | 0.438
CACGAGAG | 0.291
AGCATGGG | 0.385
CGAGGTCA | 0.255
ACGAGACA | 0.29
ATGCCCCC | 0.276

Set 4
Target: RNA binding protein fox-1 homolog 2, RRM domain, GST-SBP tag (RBFOX2, Homo sapiens, UniProt O43251-10, residues 100-194)
Method: RNA Bind-n-Seq
Form: RNA
Matrix: in vitro
Concentration: 365 nM
Setting: natural RNA segment, single round, ends assumed
Baseline: no-protein control
Direction: higher = stronger binding
Target sequence (chain): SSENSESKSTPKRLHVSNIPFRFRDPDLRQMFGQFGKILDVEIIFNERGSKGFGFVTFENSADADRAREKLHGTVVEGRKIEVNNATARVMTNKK
Sequence | RBNS enrichment (R)
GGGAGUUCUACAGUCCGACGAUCGCCACUUCUCCCUGUCCACUAGAGGUCGCUGUCUUCACAGCUUCUCUCACCCUAGCCAAAGGUCCUAAGAGGAGACCCGCUGUGAAGUCUGGCCUGCUCUUUGGUACCAGUGGAAUUCUCGGGUGCCAA | 0.19
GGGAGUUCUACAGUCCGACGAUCGCAGCAUGUGCUCACGGCAUCAUGUGGCAGUGGUGUGGGGUCUCUGCUCAGUGUGUUGAUACAGAAAAGCUGUUUUUCCUUGUUUGCAGAAGUUGACCAGACAAAGCAAAUGGAAUUCUCGGGUGCCAA | 0.771
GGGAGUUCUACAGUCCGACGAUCAUGUGGGCUCCAAACCAGAAUAGAGCCUCUGCCAAGGAGCUGGAAACAGCCCAGUGAGGCUGAAGUUCUCUUGUAGAAAUUCCUUUCCUGGGUAAAGUGAUGAGCCAUGUUGGAAUUCUCGGGUGCCAA | 0.256
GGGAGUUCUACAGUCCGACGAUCUCAUUUUUGCUCAUUUAAUUCUAUAAAUUCUCUUUAUAAAUGAAUUUUGUGUUCUUUAGUUCUCCUUAAAAGAACUUUUGAAUUAUAAAAAUAAAAUCUUUACCUGUCGAUGGAAUUCUCGGGUGCCAA | 0.742
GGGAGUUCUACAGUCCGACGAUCAUGGACUUCGUGAUUUUUGUUUUGCACUAAAGUUUCUGUGAUUUAACAAUAAAAUUCUGUUAGCCAGUCUGGGCCUAAUGUUUCUGUGACCCUUCAGCUGGAAGAGUUUGUGGAAUUCUCGGGUGCCAA | 0.462
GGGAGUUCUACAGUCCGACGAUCAGUCAGGAGAAAACCACCUUCAUAAACUGCUCUGUGCAAAGAGGAAUAAAACAUUUUUUCCAAACUGCCUUUGUGUGAUGUUUCUGUUUCUCUUCCUCUCUUUUUGGCAGUGGAAUUCUCGGGUGCCAA | 0.289
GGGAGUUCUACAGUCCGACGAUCGGGGAGAUUGAAGACCUGGCUUUAGGGCCUGAUGGCAAGUUGGUAACCGUGGGCCGGGACCUUAAGGCCUCUGUGUGGCAGAAGGAUCAGCUGGUGACACAGCUGCACUGUGGAAUUCUCGGGUGCCAA | 0.383
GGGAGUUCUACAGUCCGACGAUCGUUAUUUGAGAUUAAUUUGGCAUUUGAAAUGAUCAUUUUAUUUUACAAUCAUUUAUAAUGAAUCAAUGUUCCAGUUAGCUUUAAAAGGUAUACGGUGCUAAUUAGUAAAAUGGAAUUCUCGGGUGCCAA | 0.667

Some of these lines once more (set 2):
Sequence | E-score
AAGACTCG | -0.111
TCCTTCAA | 0.139
GGACCGCA | -0.243
AAATCTTA | 0.251
AGACGTAA | 0.0713
ACTCGAGC | -0.234
ACATCACC | -0.0442
AGCTACTG | -0.138
AAGCACAC | -0.0923
CTCCATTC | -0.134
